Measured values pooled from the literature.
Lines come from different studies, so protocols differ. Values joined by “and” are separate records of one study, mostly repeats; a detail may differ. ± marks the error that the study gave. Converted amounts (≈) assume the structure as drawn.

`COc1ccc([C@@H]2CC(=O)c3c(O)cc(O[C@@H]4O[C@H](CO)[C@@H](O)[C@H](O)[C@H]4O[C@@H]4O[C@@H](C)[C@H](O)[C@@H](O)[C@H]4O)cc3O2)cc1O` gave a faecal excretion of 395 ± 166 ng (Sprague-Dawley rat, male, obese, faeces; oral, 100 mg/kg, 0-12 h).
The tissue uptake of `N=C(N)NCCC[C@@H]1NC(=O)[C@H](CCCCNC(=O)CCC(NC(=S)Nc2ccc(CC3CN(CC(=O)O)CCN(CC(=O)O)CCN(CC(=O)O)CCN3CC(=O)O)cc2)C(=O)NCCCC[C@@H]2NC(=O)[C@@H](Cc3ccc(O)cc3)NC(=O)[C@H](CC(=O)O)NC(=O)CNC(=O)[C@H](CCCNC(=N)N)NC2=O)NC(=O)[C@@H](Cc2ccc(O)cc2)NC(=O)[C@H](CC(=O)O)NC(=O)CNC1=O` (stereo partly drawn) [scandium-44 labelled] is reported as 0.35 ± 0.17 %ID/g (PET imaging ROI; female athymic nude mice, U-87 MG xenograft, muscle; intravenous, 2 h).
For `CC[C@H](C)[C@H](NC(=O)[C@H](CCCCN)NC(=O)CNC(=O)[C@H](CC(C)C)NC(=O)[C@H](Cc1ccccc1)NC(=O)[C@H](CCCCN)NC(=O)[C@H](CO)NC(=O)[C@H](Cc1ccccc1)NC(=O)[C@H](Cc1c[nH]c2ccccc12)NC(=O)[C@H](CCC(N)=O)NC(=O)[C@@H](NC(=O)[C@H](Cc1ccccc1)NC(=O)CCCCCNC(=O)CN1CCN(CC(=O)O)CCN(CC(=O)O)CCN(CC(=O)O)CC1)C(C)C)C(=O)N[C@@H](CCC(=O)O)C(=O)N1CCC[C@H]1C(=O)N[C@@H](CC(=O)O)C(=O)N[C@H](C(=O)N[C@@H](CO)C(=O)N[C@@H](CCC(N)=O)C(=O)N[C@H](C(=O)N[C@@H](CCC(N)=O)C(=O)N[C@@H](CC(=O)O)C(=O)N1CCC[C@H]1C(=O)N[C@@H](CC(N)=O)C(=O)N[C@@H](CC(=O)O)C(=O)N[C@@H](CCC(N)=O)C(=O)N[C@@H](Cc1ccc(O)cc1)C(=O)N[C@@H](CCC(=O)O)C(=O)N1CCC[C@H]1C(=O)N[C@@H](Cc1ccccc1)C(=O)O)C(C)C)C(C)C` [copper-64 labelled], the SUVmean was 1.11 SUV (dynamic PET; mouse, CT26 tumour, untreated, tumour; intravenous, 100 µCi/mouse, 2580 s).
`C=CC(=O)Nc1cccc(Cn2ncc3cnc(Nc4cnn(CCOC)c4)nc32)c1` gave a blood MPV of 5.76 ± 0.38 fL (male Sprague-Dawley rat; oral, 180 mg/kg/day, day 28, 28-day subacute toxicity).
The MRT of `CC1(C)C(=O)N(c2ccc(C#N)c(C(F)(F)F)c2)C(=S)N1c1ccc(C(N)=O)c(F)c1` is reported as 17.7 ± 2.6 days (human, male, plasma; oral, 160 mg, single dose, fasting).
For `O=C1NC2(CC2)COc2ncc(F)cc2[C@H]2COCCN2c2ccn3ncc1c3n2`, “organ-to-body weight ratio” read 0.367 ± 0.033% (Sprague-Dawley rat, male, heart; oral, 5 mg/kg/day, 4 weeks, end of treatment).
`CSCC[C@H](NC(=O)CNC(=O)[C@H](CCCCN)NC(=O)[C@H](CC(C)C)NC(=O)[C@@H]1CCCN1C(=O)[C@H](CO)NC(=O)[C@H](Cc1c[nH]cn1)NC(=O)[C@H](Cc1c[nH]c2ccccc12)NC(=O)[C@H](CCCNC(=N)N)NC(=O)[C@H](CC(C)C)NC(=O)[C@H](CCCNC(=N)N)NC(=O)[C@H](Cc1c[nH]c2ccccc12)NC(=O)[C@H](CS)NC(=O)CCCCCNC(=O)CN1CCN(CC(=O)O)CCN(CC(=O)O)CCN(CC(=O)O)CC1)C(=O)O` [copper-64 labelled] has a tissue uptake of 3.75 ± 0.34 %ID/g (PET; C57BL/6J mice, B16-F10 tumour, kidney; intravenous, 25 h).
For `C=Cc1c(C)c2cc3nc(c(CC(=O)[O-])c4[n-]c(cc5nc(cc1[n-]2)C(C)=C5CC)c(C)c4C(=O)[O-])C(CCC(=O)[O-])C3C.[Cu+2].[Na+].[Na+].[Na+]` (stereo not drawn), “blood urea nitrogen” read 23.5 ± 2.26 mg/dL (Wistar rat, male; oral, 1000 mg/kg daily, 28 days).
The thermodynamic solubility of `CN(C)CCCNC(=O)[C@@H]1NC(=O)[C@@H]2Cc3ccc(cc3)Oc3cc4cc(c3O)-c3ccc5c(c[nH]c5c3)C[C@@H](NC(=O)C(NC(=O)CCCCCN)c3ccc(O)cc3)C(=O)N[C@H](c3ccc(O)cc3)C(=O)N[C@H]4C(=O)N[C@@H](C(=O)N2C)c2ccc(cc2)Oc2cc1ccc2O` (stereo partly drawn) is reported as 98.6 µg/mL (≈ 74.8 µM) (saline; 24 h, 25 °C).
`CC(C)(C)C(=O)OCOP(=O)(OCOC(=O)C(C)(C)C)C1CCCN(O)C1=O` (stereo not drawn) gave a GI50 of 831 nM (DU-145).
The body weight of `CCc1nn(C)c2nc(-c3ccc(C(=O)O)cc3)nc(NCc3ccccc3)c12` is reported as 21.9 g and 22.7 g and 23.2 g (NSG mice; dose not given, day 2 of treatment).
`CCCCCCCCCCCCCCCC(=O)N[C@@H](CCC(=O)NCCOCCOCCC(=O)NCCOCCOCCC(=O)NCCCC[C@H](NC(=O)[C@H](CC(=O)O)NC(=O)[C@H](CC(C)C)NC(=O)[C@H](Cc1ccc(O)cc1)NC(=O)[C@H](CCCCN)NC(=O)[C@H](CO)NC(=O)[C@H](Cc1ccc(O)cc1)NC(=O)[C@H](CC(=O)O)NC(=O)[C@H](CO)NC(=O)[C@@H](NC(=O)[C@H](Cc1ccccc1)NC(=O)[C@@H](NC(=O)CNC(=O)[C@H](CCC(N)=O)NC(=O)[C@@H](CO)NC(=O)[C@@H](N)Cc1c[nH]cn1)[C@@H](C)O)[C@@H](C)O)C(=O)N[C@@H](CCCNC(=N)N)C(=O)N[C@@H](CCCNC(=N)N)C(=O)N[C@@H](C)C(=O)N[C@@H](CCC(N)=O)C(=O)N[C@@H](CC(=O)O)C(=O)N[C@@H](Cc1ccccc1)C(=O)N[C@H](C(=O)N[C@@H](CCC(N)=O)C(=O)N[C@@H](Cc1c[nH]c2ccccc12)C(=O)N[C@@H](CC(C)C)C(=O)N[C@@H](CC(C)C)C(=O)N[C@@H](CC(N)=O)C(=O)N[C@H](C(=O)NCC(=O)NCC(=O)N1CCC[C@H]1C(=O)N[C@@H](CO)C(=O)N[C@@H](CO)C(=O)NCC(=O)N[C@@H](C)C(=O)N1CCC[C@H]1C(=O)N1CCC[C@H]1C(=O)N1CCC[C@H]1C(=O)N[C@@H](CO)C(N)=O)[C@@H](C)O)C(C)C)C(=O)O`: “serum enzyme activity” 269 ± 79.1 U/L (item: ALP; rhesus monkey, male; subcutaneous, 300 µg/kg once daily, 28 days).
`CC(=O)NCCCC[C@@H]1NC(=O)[C@H](Cc2c[nH]c3c(C)cccc23)NC(=O)[C@H]([C@@H](C)O)NC(=O)[C@H](CC(N)=O)NC(=O)[C@@H](NC(C)=O)C(C)(C)SSC(C)(C)[C@@H](C(=O)N[C@@H](Cc2ccc(OCCN)cc2)C(=O)N[C@@H](Cc2ccc3ccccc3c2)C(=O)NC2(C(=O)N[C@@H](CCC(=O)O)C(=O)N[C@@H](CC(N)=O)C(=O)N[C@@H](Cc3cccnc3)C(=O)N(C)CC(N)=O)CCOCC2)NC1=O` — result for “tissue to plasma ratio”: 46% (cynomolgus monkey, blister fluid; intravenous, 1 mg/kg).
`CN1Cc2cc(Cl)ccc2-n2c(nnc2C2CCN(c3cccc([18F])n3)CC2)C1` gave a tissue uptake of 12.9 ± 2.82 %ID/g (C57BL/6 mouse male, stomach; intravenous, 3.7 MBq, 15 min).
For `CC(C)C[C@@H](NC(=O)[C@@H](CCCNC(=N)N)NC(=O)[C@@H](Cc1c[nH]cn1)NC(=O)[C@@H](Cc1c[nH]c2ccccc12)NC(=O)[C@@H](Cc1c[nH]cn1)NC(=O)[C@@H](Cc1ccccc1)NC(=O)[C@H](NC(=O)[C@@H](Cc1ccc(O)cc1)NC(=O)CNC(=O)CNC(=O)CCOCCOCCOCCNC(=O)CN1CCN(CC(=O)O)CCN(CC(=O)O)CC1)[C@H](C)O)C(=O)N[C@H](CC(N)=O)C(=O)N1CCC[C@@H]1C(=O)O` [gallium-68 labelled], the absorbed dose was 0.00982 mSv/MBq (human male, from C57BL/6 mouse, total body).
`COc1ccccc1-c1n[nH]c2nc(NC3CCN(C(=O)Cc4ccc(F)cc4F)CC3)ncc12` gave a relative abundance of 0.85 (bead binding, competition bead pull-down, item: LINJ.34.3890; Leishmania donovani axenic amastigote extract; 10 µM; relative to: vehicle).
`CC(C)[C@@H]1NC(=O)CNC(=O)[C@H](CC(N)=O)NC(=O)[C@H](CCCNC(=N)N)NC(=O)[C@H](Cc2ccc(O)cc2)NC(=O)[C@H](C(C)C)NC(=O)[C@@H](NC(=O)[C@@H](NC(=O)[C@H](CC(N)=O)NC(=O)[C@H](Cc2c[nH]c3ccccc23)NC(=O)[C@H](C)NC(=O)[C@H](Cc2ccccc2)NC(=O)CNC(=O)[C@H](CCCCN)NC(=O)[C@H](Cc2ccccc2)NC(=O)[C@H](Cc2ccccc2)NC(=O)[C@H](CCCCN)NC(=O)OCC2c3ccccc3-c3ccccc32)C(C)C)CSSC[C@@H](C(=O)N[C@@H](Cc2c[nH]cn2)C(=O)N[C@@H](CCCNC(=N)N)C(=O)N[C@@H](CCCNC(=N)N)C(=O)N[C@@H](C)C(=O)N[C@@H](CC(N)=O)C(N)=O)NC(=O)[C@H](C(C)C)NC(=O)[C@H](CCCNC(=N)N)NC1=O` has a monocytes of 3.31 ± 0.55% (ICR mice, blood; intraperitoneal, 10 mg/kg, day 5).
For `CCCC[C@H]1C(=O)N(C)[C@@H](CCCC)C(=O)N[C@@H](CCCNC(=O)CN2CCN(CC(=O)O)CCN(CC(=O)O)CCN(CC(=O)O)CC2)C(=O)N[C@H](C(=O)NCC(N)=O)CSCC(=O)N[C@@H](Cc2ccc(O)cc2)C(=O)N(C)[C@@H](C)C(=O)N[C@@H](CC(N)=O)C(=O)N2CCC[C@H]2C(=O)N[C@@H](Cc2c[nH]cn2)C(=O)N[C@@H](CC(C)C)C(=O)N(C)CC(=O)N[C@@H](Cc2c[nH]c3ccccc23)C(=O)N[C@@H](CO)C(=O)N[C@@H](Cc2c[nH]c3ccccc23)C(=O)N1C` [gallium-68 labelled], the tissue uptake was 13.2 ± 3.13 %ID/g (NOD/SCID mice, CHO-hPD-L1 xenograft, lung; 60 min, together with: blocking agent 50 µg co-injected).
With `CC(C)[C@H](NC(=O)[C@@H](NC(=O)[C@H](CCCNC(=N)N)NC(=O)[C@H](CCCNC(=N)N)NC(=O)[C@H](CCCNC(=N)N)NC(=O)[C@H](CCC(N)=O)NC(=O)[C@H](CCCNC(=N)N)NC(=O)[C@H](CCCNC(=N)N)NC(=O)[C@H](CCCCN)NC(=O)[C@H](CCCCN)NC(=O)[C@H](CCCNC(=N)N)NC(=O)CN)[C@@H](C)O)C(=O)N[C@H](C(=O)N[C@@H](CO)C(=O)N1CCC[C@H]1C(=O)O)[C@@H](C)O` the organ weight was 0.559 ± 0.043 g (ICR mice, male, brain; intranasal, 10 mg/kg daily, 4 weeks).
For `N=C(N)NCCC[C@H](NC(=O)[C@H](CCCNC(=N)N)NC(=O)[C@H](CCCNC(=N)N)NC(=O)[C@H](CCC(N)=O)NC(=O)[C@H](CCCNC(=N)N)NC(=O)[C@H](CCCNC(=N)N)NC(=O)[C@H](CCCCN)NC(=O)[C@H](CCCCN)NC(=O)[C@H](CCCNC(=N)N)NC(=O)CNC(=O)[C@H](Cc1ccc(O)cc1)NC(=O)[C@H](Cc1ccccc1)NC(=O)[C@H](Cc1ccccc1)NC(=O)[C@H](Cc1ccccc1)NC(=O)OCC1c2ccccc2-c2ccccc21)C(=O)O`, the health score was 5 (C57BL/6 mice; intraperitoneal, 20 mg/kg, 2 h; direction not given).
`N#[11C]c1ccc(-c2csc(NN=C3CCCC3)n2)cc1` gave a radioactivity uptake of 9.24 ± 1.2 %ID/g (C57BL/6 mice, male, liver; intravenous, 3 MBq, 30 min).

Excerpt of the above:
The tissue uptake of `N=C(N)NCCC[C@@H]1NC(=O)[C@H](CCCCNC(=O)CCC(NC(=S)Nc2ccc(CC3CN(CC(=O)O)CCN(CC(=O)O)CCN(CC(=O)O)CCN3CC(=O)O)cc2)C(=O)NCCCC[C@@H]2NC(=O)[C@@H](Cc3ccc(O)cc3)NC(=O)[C@H](CC(=O)O)NC(=O)CNC(=O)[C@H](CCCNC(=N)N)NC2=O)NC(=O)[C@@H](Cc2ccc(O)cc2)NC(=O)[C@H](CC(=O)O)NC(=O)CNC1=O` (stereo partly drawn) [scandium-44 labelled] is reported as 0.35 ± 0.17 %ID/g (PET imaging ROI; female athymic nude mice, U-87 MG xenograft, muscle; intravenous, 2 h).
For `C=Cc1c(C)c2cc3nc(c(CC(=O)[O-])c4[n-]c(cc5nc(cc1[n-]2)C(C)=C5CC)c(C)c4C(=O)[O-])C(CCC(=O)[O-])C3C.[Cu+2].[Na+].[Na+].[Na+]` (stereo not drawn), “blood urea nitrogen” read 23.5 ± 2.26 mg/dL (Wistar rat, male; oral, 1000 mg/kg daily, 28 days).
